Results of several laboratories.
A part holds a random share of what one study measured. Positions count from the first letter of the parent shown.

Study 1
Target: CCNA2, cyclin fold, Cln2 fusion (human)
Method: yeast growth competition, sequencing
Matrix: yeast
Setting: strong parent motif
Baseline: not given
Direction: higher = stronger binding
Starting sequence: DOT1L docking peptide (human); SEAKRRIVFTITT; partner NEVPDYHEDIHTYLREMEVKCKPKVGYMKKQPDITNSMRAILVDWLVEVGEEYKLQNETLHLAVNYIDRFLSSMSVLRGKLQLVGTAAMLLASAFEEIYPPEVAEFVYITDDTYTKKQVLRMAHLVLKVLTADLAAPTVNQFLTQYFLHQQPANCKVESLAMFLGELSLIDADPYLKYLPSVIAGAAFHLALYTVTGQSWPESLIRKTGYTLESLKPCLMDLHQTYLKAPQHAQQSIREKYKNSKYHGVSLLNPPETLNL
Change	normalised enrichment score
K4A	1.15
I7A	0.35
R6A	0.56
T10A	1.95
F9A	0.63
T12A	2.8

Study 2
Target: Centromere-binding protein 1, full length, N-terminal tag (CBF1, Saccharomyces cerevisiae, UniProt P17106, residues 1-351)
Chain of UniProt P17106 (whole entry, looked up): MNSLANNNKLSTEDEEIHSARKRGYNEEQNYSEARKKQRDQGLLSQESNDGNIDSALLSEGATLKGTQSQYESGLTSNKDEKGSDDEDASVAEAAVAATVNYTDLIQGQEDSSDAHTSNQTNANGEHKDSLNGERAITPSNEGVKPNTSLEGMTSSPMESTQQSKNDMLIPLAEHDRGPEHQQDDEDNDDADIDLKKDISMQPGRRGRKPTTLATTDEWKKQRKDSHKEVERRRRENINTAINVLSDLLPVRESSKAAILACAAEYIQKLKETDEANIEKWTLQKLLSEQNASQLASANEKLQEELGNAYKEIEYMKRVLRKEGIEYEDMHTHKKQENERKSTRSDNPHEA
Method: protein-binding microarray
Form: double-stranded DNA, one strand shown
Matrix: in vitro
Concentration: 0.8 µM
Setting: whole 60-bp probe, no competitor
Direction: higher = stronger binding
Constant ends, left off below: … GTCTTGATTCGCTTGACGCTGCTG
Sequence	fluorescence intensity
GAAGTGACGCACAATCACGGCTATGGCTCGGTGTAG	526 a.u.
CTAAAATTCATTTATGGTGTGAGTGTGCGAGCGTTC	540 a.u.
CTATTGGAAGAGAAACAGCTGATGATTCTGGCATTC	581 a.u.
CTAGTAATGGAAATTCACCTGCTTTGAATCGTTTTC	515 a.u.
CCTAACTACTATAGTGATGTAATATAGCTTCGTACA	524 a.u.
CTACGAAGCACGTGACACGTTCCCTTCAAACATTTC	21800 a.u.
CTAGCACGTGATGACCACGTAATCGCATCGCCCTTC	15000 a.u.
CTATCGGTCTTGGGTCACGTGCGGCGACGCGGATTC	22400 a.u.
GAACTGTTCTGCGACCACGTCAATAATAGTTCCTAG	501 a.u.
GAAGTGATAAAACCTCACGTATGACACACTGGATAG	570 a.u.
CTATTGTATTCTTTTGGTAACGTGTATCTCAAATTC	1530 a.u.
GAATCCAAGAATATAGATGTGACCATCCTGTTATAG	516 a.u.
CTAAGTCTACCCACGGTGATGATTTTTCTGCCATTC	509 a.u.
GAAAGTGCACTACGTGACAAAAATAAAAAGTGTTAG	918 a.u.
TGTACGAAGCTATGTCACGTGTTTATAGTAGTTAGG	16100 a.u.
GAATTCTGTTCTCTTCACATGCGTTAGGTATAGTAG	600 a.u.
CCTAACTACTATAATCACGAGCGATAGCTTCGTACA	826 a.u.
GAATAGCGACCTCATCACCACCTAGACCCCTCGTAG	517 a.u.
CTAAAGAAATATACCCACGCGTTCTTTACCCGGTTC	540 a.u.

Study 3
Target: Interferon regulatory factor 5, full length, phosphomimetic (IRF5, Homo sapiens, UniProt Q13568-2, residues 1-514, S451D/S453D/S456D/S462D)
Method: protein-binding microarray
Form: double-stranded DNA, one strand shown
Matrix: in vitro
Concentration: 940 nM top
Setting: 60-bp whole probe
Together with: salmon DNA 0.4 mg/ml
Baseline: random background probes
Direction: higher = stronger binding
Constant ends, left off below: GCCTAGCAC … GTCTTGATTCGCTTGACGCTGCTG
Sequence	fitted relative affinity
TTAGGACTGGGGTATTGGTTAGTGCTA	0.135 z-score
TTAGGTTTCGGTTTCGATTAGTGCTAG	16.5 z-score
TTAGGTTCCCTTTTGCTTTAGTGCTAG	0.424 z-score
AAACAAATAAGCCTTACTTGGTGCTAG	-0.0866 z-score
GACGATTTCAGTTCCGGGACGTGCTAG	0.953 z-score
GACGGTTTCCATTCCCTGACGTGCTAG	2.11 z-score
TAAGATATCGGGTTTCGATTAGTGCTA	5.7 z-score
TTAGATTTCGGGTTTCGATAAGTGCTA	5.24 z-score
TTAGGTATCGGCTTTCGGTTAGTGCTA	6.22 z-score
TGAGAACTGAGTATCGATTAGTGCTAG	4.79 z-score
ATTTGTAAGTACATTAACTCGTGCTAG	-0.321 z-score
TTTTTTTTTTTTCTGATCCAGTGCTAG	1.24 z-score
CCATTTTTCTAGTCCAGACTGTGCTAG	1.07 z-score
TCATCTCTCCCATTCTGACTGTGCTAG	1.32 z-score
TCAATTTTCATTTTGTGACTGTGCTAG	0.82 z-score
TCAGGTTTCCTACTGCTTTAGTGCTAG	0.582 z-score
TCAAAGATTTTTATCAAACTGTGCTAG	0.0269 z-score
AGTGTCTCCATCAGAGGAGAGTGCTAG	-0.239 z-score
TTAGGTTTCGGTTTCGGTTTGTGCTAG	17.1 z-score

Study 4
Target: Histone acetyltransferase KAT6A, winged helix 1, GST fusion (KAT6A, Homo sapiens, UniProt Q92794, residues 1-85)
Method: protein binding microarray
Form: double-stranded DNA, one strand shown
Matrix: in vitro
Concentration: not given
Setting: 8-mer, flanks averaged, mean of 2 arrays, mostly near background
Baseline: not given
Direction: higher = stronger binding
Residues (chain): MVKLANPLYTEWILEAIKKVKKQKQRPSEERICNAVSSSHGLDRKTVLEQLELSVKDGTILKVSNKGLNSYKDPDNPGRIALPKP
Sequence	E-score
GGGCCCTA	0.0209
TAGCGGCA	0.399
ACCACTAG	-0.225
CATTCAAG	-0.143
GCTATAAA	0.0355
GCCTACAC	-0.057
AAGCCAAT	-0.123
GACCTTGC	-0.042
ATTATCAC	0.0532
CCGTGTAC	0.263
CCTCGTAC	0.141
GAAACGTC	-5.5e-05
ACATAGCA	-0.139
GCATTTTA	-0.0645
CCCAAGTC	-0.172
GTTACATA	-0.00325
ACAGCTGG	-0.0884
GATGAAGC	-0.0235
GCCAAGGC	-0.00797
AATCACTA	-0.102
GTTATTAA	0.074
AACCCCGA	0.196
CAAATGGC	-0.0187
TACGTACA	-0.0624
TTCTGAAA	-0.0549

Excerpt of the above (study 4):
Sequence	E-score
AAGCCAAT	-0.123
GCCAAGGC	-0.00797
GCTATAAA	0.0355
GAAACGTC	-5.5e-05
CATTCAAG	-0.143
GGGCCCTA	0.0209
TACGTACA	-0.0624
CCCAAGTC	-0.172
CCTCGTAC	0.141
CAAATGGC	-0.0187
GCCTACAC	-0.057
